Results pooled from the literature.
Each line is one published result; not all experiments were run side by side.
Target: Death-associated protein kinase 3 (DAPK3, Homo sapiens, UniProt O43293)

CCN1CCN(Cc2ccc(C(=O)Nc3ccc(C)c(NCc4cnc5[nH]ccc5c4OC)c3)cc2C(F)(F)F)CC1  remaining binding (binding, competition with immobilised ligand; 1 µM): 96%
COc1cc(Nc2nc(C)cc(-c3cnn4nc(OC)ccc34)n2)cc(C(F)(F)F)c1  remaining activity (inhibitor; 1 µM; reference: control): 100%
NC(=O)[C@@H](O)C[C@H]1CCc2sc3ncnc(O[C@H]4CC[C@H](N5CCOCC5)CC4)c3c21  inhibition (enzyme activity, inhibitor; 10 µM): -5%
CN1CC[C@@H](COc2cnc(C#N)cc2-c2ccn3nc(NC(=O)C4CC4)cc3c2)C1  inhibition (enzyme activity, inhibitor; 1 µM): 1%
C=CC(=O)N1CCCC(n2c(=O)c3ncccc3n(Cc3ccc(Oc4ccccc4)cc3)c2=O)C1 (stereo not drawn)  remaining binding (cell-free assay, competition with immobilised ligand; 1 µM): 97%
Cc1cccc(O[C@H]2CCC[C@@H](C(C)CNCc3ccncc3)C2)c1 (relative stereo)  inhibition (enzyme activity, inhibitor; 10 µM): -4%
COc1c(OCCCN2CCOCC2)ccc2c1N=C(NC(=O)c1cnc(N)nc1)N1CCN=C21  remaining activity (kinase activity, inhibitor; 1 µM; reference: untreated control): 101%
O=C=[N][Ru-4]123([n]4c5ccc(O)cc5c5c6c(c7cc(F)c[n+]1c7c54)C(=O)NC6=O)[S+]1CC[S+]2CC[S+]3CC1 (stereo not drawn)  remaining activity (enzyme activity; 100 nM, human enzyme, together with: 10 µM ATP; reference: untreated): 18%
CNC(=O)C[C@H](Cc1ccc(C#N)cc1)NC(=O)c1cc(-c2ccc(CN[C@H](C)c3ccc(C)cc3)o2)ccc1Cl  activity vs control (enzyme activity, inhibitor; 1 µM): 115%
COc1ccc(NC(=O)Nc2ccc3c(c2)C(=O)N(C(C)CO)CC(C)C(CN(C)Cc2ccc4c(c2)OCO4)O3)cc1 (stereo not drawn)  remaining activity (kinase activity, KinaseProfiler; 0.03 µM, species human; reference: control): 105%
C=CC(=O)N1Cc2nc(-c3cc(-c4cc(Cl)cnc4Cl)c(F)cc3F)n(-c3ccncn3)c2C1  inhibition (cell-free assay, inhibitor; 1 µM): 4.5%
C=CC(=O)Nc1cccc(-c2cnc3[nH]cc(C(=O)NC(C)(C)C)c3n2)c1  inhibition (enzyme activity, inhibitor; 0.1 µM): -1%
CC(C)=CC1OC(C)(C)C2C=C3C(=O)C(Cl)=CC(O)C3C3C(O)C4OC4C(=O)C132 (stereo not drawn)  remaining binding (cell-free assay, competition with immobilised ligand; 10 µM): 64%
Nc1ncc2c(n1)-c1c([nH]c3ccc(C4=CCOCC4)cc13)CCC2  remaining binding (binding, competition with immobilised ligand; 1 µM): 100%
O=C(Cc1ccc(OCc2ccccc2)cc1)NC1(C(=O)O)CCN(C(=O)c2ccc(-c3cccc(Cl)c3)cc2)CC1  activity vs control (enzyme activity, inhibitor; 10 µM): 110%
